Experimental data pooled from the literature.
Every numbered part comes from another study and shows a few of its results, in no order.

Set 1 — method: protein-binding microarray; molecule type: double-stranded DNA, one strand shown; sample: in vitro; tested at: 250 nM; notes: 60-bp whole probe; with: salmon DNA 0.4 mg/ml; relative to: random background probes; reading: higher = stronger binding; shared flanks, not repeated: GCCTAGCAC … GTCTTGATTCGCTTGACGCTGCTG
Target: Interferon regulatory factor 5, full length, phosphomimetic (IRF5, Homo sapiens, UniProt Q13568-2, residues 1-514, K96S/S451D/S453D/S456D/S462D)
`GCTAGTTCAGTTCTCTAGAAGTGCTAG` has a log fluorescence of -0.212 z-score.
The log fluorescence of `TTAGATTTCGGAACTGGATTAGTGCTA` is reported as 2.89 z-score.
`AACTGTCTGCCTTTCAATCCGTGCTAG` has a log fluorescence of 0.677 z-score.
`GTAGAACTGGGGTTTCGATTAGTGCTA` has a log fluorescence of 5.64 z-score.
The log fluorescence of `TTAGGGCTCCTTCTCCTTTAGTGCTAG` is reported as -0.348 z-score.
The log fluorescence of `TTAGGTCTCCTTTTCTTTTAGTGCTAG` is reported as 0.414 z-score.
With `AACAGTTCATGTTTTGGAAAGTGCTAG` the log fluorescence was 0.53 z-score.

Set 2 — method: universal PBM; molecule type: double-stranded DNA, one strand shown; sample: in vitro; tested at: not given; reading: higher = stronger binding
Target: Sal-like protein 4, full length isoform B (SALL4, Homo sapiens, UniProt Q9UJQ4-2, residues 1-616)
Notes: 8-mer, flanks averaged, mean of replicates
For `ATATGAGG`, the E-score was 0.24.
`CCTAAAAG` gave an E-score of -0.0707.
With `ATACGAAT` the E-score was 0.27.
`CACCTCGC` gave an E-score of -0.258.
For `AATCAGTC`, the E-score was -0.0474.

Set 3 — method: protein binding microarray; molecule type: double-stranded DNA, one strand shown; sample: in vitro; tested at: not given; relative to: not given; reading: higher = stronger binding
Target: Histone acetyltransferase KAT6A, winged helix 2, GST fusion (KAT6A, Homo sapiens, UniProt Q92794, residues 85-181)
Notes: 8-mer, flanks averaged, mean of 2 arrays, mostly near background
Residues (chain): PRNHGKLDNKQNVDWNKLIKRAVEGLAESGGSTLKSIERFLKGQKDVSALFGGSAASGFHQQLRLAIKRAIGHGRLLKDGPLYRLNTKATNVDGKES
The E-score of `ATGATAGG` is reported as -0.098.
The E-score of `TCCCTTAA` is reported as -0.133.
For `CAAAATTG`, the E-score was -0.0117.
For `ATTGATAC`, the E-score was 0.0952.
`GGTAAGGA` gave an E-score of -0.0357.
`AAGCTACA` has an E-score of 0.00538.

Mixed results
For `PhoQ, residues 284 288 289 292 302 303 SSLVEF`, the fold induction was 2.08 (PhoP, residues 12 14 15 18 19 LHSVW (Escherichia coli, UniProt P23836); Sort-seq, refers to: YFP reporter; E. coli; PhoQ-PhoP variant library, with: 10 µM Mg2+; relative to: high Mg2+ state, higher = stronger signaling).

A few entries again (set 3):
For `CAAAATTG`, the E-score was -0.0117.
For `ATTGATAC`, the E-score was 0.0952.
